Assay results of several laboratories.
Protocols differ between the studies behind these lines.

SMILES | organism | test | test system | conditions | MIC
CN[C@H](CC(C)C)C(=O)N[C@H]1C(=O)N[C@@H](CC(N)=O)C(=O)N[C@H]2C(=O)N[C@H]3C(=O)N[C@H](C(=O)N[C@H](C(=O)O)c4cc(O)cc(O)c4-c4cc3ccc4O)[C@H](O)c3ccc(c(Cl)c3)Oc3cc2cc(c3O[C@@H]2O[C@H](CO)[C@@H](O)[C@H](O)[C@H]2O[C@H]2C[C@](C)(N)[C@H](O)[C@H](C)O2)Oc2ccc(cc2Cl)[C@H]1O | Bifidobacterium adolescentis | broth microdilution | DSM 108263 |  | 0.17 µM
CCCCCCCCCCCC(=O)ON=C1C=CC(=C(C#N)c2ccccc2)C=C1 | Kluyveromyces marxianus | broth dilution | ATCC 204093 | 48 h, 37 °C | 128 µg/mL
O=C(O)c1ccc(NCc2ccc(Cl)cc2)cc1 | Salmonella enterica |  |  |  | 64 µg/mL
O=C(O)c1cn(C2CC2)c2cc(N3CCNCC3)c(F)cc2c1=O | Salmonella enterica | broth microdilution | Kentucky, resistant |  | 16 µg/mL
CC(=O)NC[C@H]1CN(c2ccc(N3CCOCC3)c(F)c2)C(=O)O1 | Bifidobacterium adolescentis |  | HM-633 |  | < 2.96 µM
CNC(C)C1CCC(N)C(OC2C(N)CC(N)C(OC3OCC(C)(O)C(NC)C3O)C2O)O1 (centres unmarked) | Pseudomonas aeruginosa |  | clinical isolate RKI-No_579/15 |  | 1 µg/mL
CN(C)c1ccc(CNc2ccc(C(=O)O)cc2)cc1 | Salmonella enterica |  |  |  | 64 µg/mL
N#CC(=C1C=CC(=NOC(=O)c2ccccc2)C=C1)c1ccccc1 | Kluyveromyces marxianus | broth dilution | ATCC 204093 | 48 h, 37 °C | 128 µg/mL
CC1(C)SC2C(NC(=O)C(NC(=O)C3=C(O)CNC3=O)c3ccccc3)C(=O)N2C1C(=O)O (centres unmarked) | Escherichia coli | broth microdilution | ATCC 25922 wild type | with: clavulanic acid 6 µg/mL | 12.5 µg/mL
CC1(C)S[C@@H]2[C@H](NC(=O)[C@H](N)c3ccc(O)cc3)C(=O)N2[C@H]1C(=O)O | Salmonella enterica |  |  |  | 16 µg/mL
N=C(N)c1ccc(OCc2cccc(COc3ccc(C(=N)N)cc3)c2)cc1 | Escherichia coli |  | mcr-2 polymyxin-resistant | 20 h, compound alone | 100 µg/mL
OC(Cn1cncn1)(Cn1cncn1)c1ccc(F)cc1F | Candida albicans | broth microdilution | 45 | 24 h, compound alone | 2 µg/mL
N=C(N)c1cccc(OCc2ccc(COc3cccc(C(=N)N)c3)cc2)c1 | Escherichia coli |  | BW25113 | in combination, lowest-FICI combination, with: vancomycin | 200 µg/mL
CC(=O)ON=C1C=CC(=C(C#N)c2ccccc2)C=C1 | Kluyveromyces marxianus | broth dilution | ATCC 204093 | 48 h, 37 °C | 16 µg/mL
N=C(N)c1ccc(OCCCCCOc2ccc(C(=N)N)cc2)cc1 | Escherichia coli |  | mcr-3 polymyxin-resistant | compound alone | > 200 µg/mL
CC1(C)S[C@@H]2[C@H](NC(=O)[C@H](N)c3ccccc3)C(=O)N2[C@H]1C(=O)O | Salmonella enterica |  |  | 20 h, pH 5.5 | 1 µg/mL
NNC(=O)c1ccncc1 | Mycobacterium marinum |  |  |  | 40 µM
Cc1c(CN(C)C(=O)/C=C/c2cnc3c(c2)CCC(=O)N3)oc2ccccc12 | Escherichia coli | broth microdilution | AR-0493 |  | > 32 µg/mL
C#CCON=C1C=CC(=C(C#N)c2ccccc2)C=C1 | Kluyveromyces marxianus | broth dilution | ATCC 204093 | 48 h, 37 °C | 16 µg/mL
O=C(O)c1ccc(NCc2cc(Br)ccc2O)cc1 | Salmonella enterica |  |  |  | 128 µg/mL
C=C1C(=O)O[C@@H](CCCCCCCCCCCCC)[C@@H]1C(=O)O | Candida tropicalis |  | CT2 |  | 32 µg/mL
COc1cccc(CNc2ccc(C(=O)O)cc2)c1OC | Salmonella enterica |  |  |  | 64 µg/mL
CCOC(=O)CON | Candida tropicalis |  | CT2 |  | 32 µg/mL
OC(Cn1cncn1)(Cn1cncn1)c1ccc(F)cc1F | Candida tropicalis | broth microdilution | CT-Q-2 | 24 h | > 400 µM
COc1cc(CNc2ccc(C(=O)O)cc2)cc(OC)c1O | Salmonella enterica |  |  |  | 64 µg/mL
N=C(N)c1ccc(OCc2cc(Br)cc(COc3ccc(C(=N)N)cc3)c2)cc1 | Escherichia coli |  | mcr-2 polymyxin-resistant | 20 h, compound alone | 25 µg/mL

Some of these lines once more:
SMILES | organism | test | test system | conditions | MIC
CN(C)c1ccc(CNc2ccc(C(=O)O)cc2)cc1 | Salmonella enterica |  |  |  | 64 µg/mL
N#CC(=C1C=CC(=NOC(=O)c2ccccc2)C=C1)c1ccccc1 | Kluyveromyces marxianus | broth dilution | ATCC 204093 | 48 h, 37 °C | 128 µg/mL
